Experimental data gathered from unrelated publications.
Every numbered part comes from another study and shows a few of its results, in no order.
Sequence of UniProt P57058 (whole entry, looked up): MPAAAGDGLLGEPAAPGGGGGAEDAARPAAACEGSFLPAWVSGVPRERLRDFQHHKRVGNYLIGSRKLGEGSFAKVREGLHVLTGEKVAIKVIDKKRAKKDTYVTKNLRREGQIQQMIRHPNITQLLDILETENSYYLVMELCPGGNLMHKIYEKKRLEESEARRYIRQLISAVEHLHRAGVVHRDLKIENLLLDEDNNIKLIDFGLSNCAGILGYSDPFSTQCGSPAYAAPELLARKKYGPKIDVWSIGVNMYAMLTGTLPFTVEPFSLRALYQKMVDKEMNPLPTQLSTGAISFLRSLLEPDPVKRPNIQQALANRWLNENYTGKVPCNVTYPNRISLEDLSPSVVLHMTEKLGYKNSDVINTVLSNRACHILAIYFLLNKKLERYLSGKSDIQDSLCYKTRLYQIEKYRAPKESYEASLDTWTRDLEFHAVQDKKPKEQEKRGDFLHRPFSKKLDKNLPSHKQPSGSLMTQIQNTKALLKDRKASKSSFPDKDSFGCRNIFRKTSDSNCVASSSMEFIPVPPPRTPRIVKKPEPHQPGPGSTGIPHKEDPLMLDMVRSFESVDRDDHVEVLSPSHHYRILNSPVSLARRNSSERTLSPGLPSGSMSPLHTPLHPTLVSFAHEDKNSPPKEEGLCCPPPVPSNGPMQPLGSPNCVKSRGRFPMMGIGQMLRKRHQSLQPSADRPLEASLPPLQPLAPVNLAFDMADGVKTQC
Sequence of UniProt Q9UK32 (whole entry, looked up): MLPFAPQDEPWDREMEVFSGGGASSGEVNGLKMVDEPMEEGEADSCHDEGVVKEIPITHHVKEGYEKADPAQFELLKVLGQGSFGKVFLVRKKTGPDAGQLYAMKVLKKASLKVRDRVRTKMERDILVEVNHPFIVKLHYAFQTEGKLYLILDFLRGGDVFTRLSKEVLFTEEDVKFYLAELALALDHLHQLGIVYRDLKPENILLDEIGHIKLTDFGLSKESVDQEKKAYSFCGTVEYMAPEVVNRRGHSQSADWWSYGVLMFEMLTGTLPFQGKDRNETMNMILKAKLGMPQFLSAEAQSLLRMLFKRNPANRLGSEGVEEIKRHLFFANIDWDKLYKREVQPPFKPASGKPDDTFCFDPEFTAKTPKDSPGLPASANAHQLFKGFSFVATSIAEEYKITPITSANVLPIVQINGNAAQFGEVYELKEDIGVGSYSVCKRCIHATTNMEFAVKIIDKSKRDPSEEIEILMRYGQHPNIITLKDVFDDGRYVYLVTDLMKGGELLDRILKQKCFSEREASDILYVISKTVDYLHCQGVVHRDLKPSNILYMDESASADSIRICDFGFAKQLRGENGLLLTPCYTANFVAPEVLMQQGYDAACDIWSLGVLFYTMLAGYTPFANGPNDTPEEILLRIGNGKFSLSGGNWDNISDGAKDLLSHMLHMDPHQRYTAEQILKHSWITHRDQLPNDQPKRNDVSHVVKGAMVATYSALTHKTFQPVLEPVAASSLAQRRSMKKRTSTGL
Sequence of UniProt Q13237 (whole entry, looked up): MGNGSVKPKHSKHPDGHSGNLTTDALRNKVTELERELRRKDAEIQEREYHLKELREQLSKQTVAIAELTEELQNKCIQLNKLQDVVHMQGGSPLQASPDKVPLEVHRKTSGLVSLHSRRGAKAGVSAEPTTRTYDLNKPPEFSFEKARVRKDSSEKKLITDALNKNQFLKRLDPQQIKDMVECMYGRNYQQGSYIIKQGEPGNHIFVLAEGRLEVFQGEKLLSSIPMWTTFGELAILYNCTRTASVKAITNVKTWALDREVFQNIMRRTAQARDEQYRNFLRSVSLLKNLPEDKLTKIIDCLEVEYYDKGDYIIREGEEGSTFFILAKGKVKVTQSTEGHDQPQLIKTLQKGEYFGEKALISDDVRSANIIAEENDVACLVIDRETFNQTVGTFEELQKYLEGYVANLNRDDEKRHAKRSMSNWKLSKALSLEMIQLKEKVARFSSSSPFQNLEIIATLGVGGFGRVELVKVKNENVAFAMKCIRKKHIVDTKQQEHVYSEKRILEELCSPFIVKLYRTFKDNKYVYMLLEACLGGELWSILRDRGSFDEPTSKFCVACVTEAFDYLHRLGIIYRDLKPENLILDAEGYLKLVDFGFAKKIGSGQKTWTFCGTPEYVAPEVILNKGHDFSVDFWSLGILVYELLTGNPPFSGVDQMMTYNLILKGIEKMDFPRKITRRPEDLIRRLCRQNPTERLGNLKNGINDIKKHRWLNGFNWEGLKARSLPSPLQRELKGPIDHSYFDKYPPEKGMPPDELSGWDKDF
Sequence of UniProt O43683 (whole entry, looked up): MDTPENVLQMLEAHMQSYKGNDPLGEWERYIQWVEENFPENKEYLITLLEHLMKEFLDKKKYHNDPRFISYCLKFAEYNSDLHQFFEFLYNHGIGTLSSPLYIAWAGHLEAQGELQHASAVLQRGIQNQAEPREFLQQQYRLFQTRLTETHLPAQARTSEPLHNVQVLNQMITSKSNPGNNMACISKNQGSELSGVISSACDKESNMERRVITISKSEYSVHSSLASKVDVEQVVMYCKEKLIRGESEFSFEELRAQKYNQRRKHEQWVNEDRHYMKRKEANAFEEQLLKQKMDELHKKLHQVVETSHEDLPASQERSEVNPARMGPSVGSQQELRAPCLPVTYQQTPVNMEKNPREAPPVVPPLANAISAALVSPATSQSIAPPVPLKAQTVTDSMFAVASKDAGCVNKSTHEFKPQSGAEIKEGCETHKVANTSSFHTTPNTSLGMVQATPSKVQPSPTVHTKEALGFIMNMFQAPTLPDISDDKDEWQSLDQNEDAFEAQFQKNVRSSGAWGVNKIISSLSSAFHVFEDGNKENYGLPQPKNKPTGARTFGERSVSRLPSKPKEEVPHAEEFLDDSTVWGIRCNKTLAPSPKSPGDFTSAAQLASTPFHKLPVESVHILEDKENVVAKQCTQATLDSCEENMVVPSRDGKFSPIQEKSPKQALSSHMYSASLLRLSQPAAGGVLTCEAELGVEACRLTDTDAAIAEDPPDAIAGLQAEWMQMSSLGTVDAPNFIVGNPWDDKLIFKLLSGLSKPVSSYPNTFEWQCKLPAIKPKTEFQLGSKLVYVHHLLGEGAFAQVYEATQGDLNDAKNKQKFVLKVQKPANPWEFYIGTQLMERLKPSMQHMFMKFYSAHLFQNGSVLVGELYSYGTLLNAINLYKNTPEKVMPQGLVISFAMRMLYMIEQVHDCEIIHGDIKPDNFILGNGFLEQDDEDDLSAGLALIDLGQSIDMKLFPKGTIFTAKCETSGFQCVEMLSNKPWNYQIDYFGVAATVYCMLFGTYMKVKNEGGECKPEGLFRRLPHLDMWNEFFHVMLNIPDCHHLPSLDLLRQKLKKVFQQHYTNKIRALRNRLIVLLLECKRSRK
Sequence of UniProt Q9H4B4 (whole entry, looked up): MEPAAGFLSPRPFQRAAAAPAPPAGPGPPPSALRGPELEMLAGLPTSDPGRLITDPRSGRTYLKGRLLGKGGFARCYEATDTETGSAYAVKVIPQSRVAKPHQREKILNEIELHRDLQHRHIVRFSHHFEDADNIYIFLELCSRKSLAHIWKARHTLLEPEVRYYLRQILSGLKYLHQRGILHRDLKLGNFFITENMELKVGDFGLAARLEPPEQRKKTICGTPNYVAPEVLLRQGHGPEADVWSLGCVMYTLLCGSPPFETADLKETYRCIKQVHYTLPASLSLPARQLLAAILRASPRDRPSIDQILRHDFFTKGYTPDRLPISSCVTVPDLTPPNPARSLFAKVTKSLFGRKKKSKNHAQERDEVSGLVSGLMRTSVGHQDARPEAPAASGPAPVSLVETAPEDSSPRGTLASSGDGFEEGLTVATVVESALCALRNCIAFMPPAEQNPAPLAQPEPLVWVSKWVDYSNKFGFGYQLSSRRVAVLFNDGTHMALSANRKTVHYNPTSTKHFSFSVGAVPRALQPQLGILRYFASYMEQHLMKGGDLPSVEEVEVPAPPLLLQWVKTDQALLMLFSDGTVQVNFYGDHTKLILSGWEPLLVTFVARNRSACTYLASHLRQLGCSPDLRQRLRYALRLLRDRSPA

Sample 1
SMILES: COc1cc(C(=O)N2CCC(N3CCN(C)CC3)CC2)ccc1Nc1ncc2c(n1)N(C)c1ccccc1C(=O)N2C
It gave 25.5% for inhibition (mouse PIP5K3; probe labelling, KiNativ ADP probe; mouse brain lysate; 1 µM, ATP site).
It gave -19.8% for inhibition (human PBMC; probe labeling, inhibitor, KiNativ profiling; cell lysate; concentration not given, ATP site, added: ATP acyl-phosphate probe 0.1 µM).
For PKCe (mouse); probe labelling, KiNativ, item: LYS1 site peptide; brain tissue lysate (mouse); 1 µM, added: ATP acyl-phosphate probe: inhibition read 14.6%.
NEK9 (mouse); probe labelling, KiNativ ATP probe; mouse brain lysate; 0.1 µM, LYS1 labelled site — inhibition: -7.2%.
For NEK9 (mouse); probe labelling, KiNativ, item: DIkTLNIFLTK peptide, LYS2 site; brain tissue lysate (mouse); 0.1 µM, added: ATP acyl-phosphate probe: inhibition read 7.5%.
The inhibition was 8.9% (MYLK; KiNativ ATP probe; mouse brain lysate; 1 µM, LYS2 site).
AXL mouse; KiNativ profiling; mouse brain lysate; 0.1 µM, activation loop site, added: ADP acyl phosphate probe — inhibition: -32.9%.
It gave -8.8% for inhibition (ILK (mouse); probe labelling, KiNativ, item: WQGNDIVVkVLK peptide, LYS1 site; brain tissue lysate (mouse); 0.1 µM, added: ADP acyl-phosphate probe).
It gave -12.6% for inhibition (mouse FYN/SRC/YES; probe labelling, KiNativ ATP probe; mouse brain lysate; 1 µM, activation loop site).
It gave 2.7% for inhibition (human PBMC; probe labeling, inhibitor, KiNativ profiling, item: DVkPDNMLLDK; cell lysate; concentration not given, LYS2 site, added: ATP acyl-phosphate probe 0.1 µM).

Sample 2
SMILES: CNC(=O)c1ccc(Nc2ncc(C(F)(F)F)c(NCc3nccnc3N(C)S(C)(=O)=O)n2)cc1
Observed: cell-free assay
Technique: competition with immobilised ligand
Concentration: 0.1 µM
It gave 25% for remaining binding (CLK4 (Homo sapiens, UniProt Q9HAZ1)).
The remaining binding was 100% (BUB1 (Homo sapiens, UniProt O43683)).
For TRPM6 (Homo sapiens, UniProt Q9BX84): remaining binding read 98%.
CDK11B (Homo sapiens, UniProt P21127) — remaining binding: 95%.
For VRK2 (Homo sapiens, UniProt Q86Y07): remaining binding read 85%.
For CSNK1G2 (Homo sapiens, UniProt P78368): remaining binding read 99%.
It gave 69% for remaining binding (PRPF4B (Homo sapiens, UniProt Q13523)).
PTK6 (Homo sapiens, UniProt Q13882) — remaining binding: 100%.
The remaining binding was 74% (ALK (Homo sapiens, UniProt Q9UM73, C1156Y)).
It gave 100% for remaining binding (MTOR (Homo sapiens, UniProt P42345)).
For DYRK1A (Homo sapiens, UniProt Q13627): remaining binding read 71%.
It gave 100% for remaining binding (HUNK (Homo sapiens, UniProt P57058)).
The remaining binding was 77% (TSSK3 (Homo sapiens, UniProt Q96PN8)).
The remaining binding was 94% (CDK13 (Homo sapiens, UniProt Q14004)).
EGFR (Homo sapiens, UniProt P00533, del747-750/T751S) — remaining binding: 93%.
The remaining binding was 100% (MAPK10 (Homo sapiens, UniProt P53779)).
For MARK4 (Homo sapiens, UniProt Q96L34): remaining binding read 83%.
It gave 91% for remaining binding (PLK3 (Homo sapiens, UniProt Q9H4B4)).
It gave 100% for remaining binding (PRKG2 (Homo sapiens, UniProt Q13237)).
The remaining binding was 89% (RIPK4 (Homo sapiens, UniProt P57078)).
The remaining binding was 100% (RIPK2 (Homo sapiens, UniProt O43353)).
It gave 100% for remaining binding (Mast/stem cell growth factor receptor Kit, autoinhibited (KIT, Homo sapiens, UniProt P10721)).
NTRK3 (Homo sapiens, UniProt Q16288) — remaining binding: 41%.
The remaining binding was 70% (Ribosomal protein S6 kinase alpha-6, N-terminal kinase domain (RPS6KA6, Homo sapiens, UniProt Q9UK32)).
It gave 100% for remaining binding (ACVR2B (Homo sapiens, UniProt Q13705)).

Sample 3
Target: Serine/threonine-protein kinase N1 (PKN1, Homo sapiens, UniProt Q16512)
Sequence of UniProt Q16512 (whole entry, looked up): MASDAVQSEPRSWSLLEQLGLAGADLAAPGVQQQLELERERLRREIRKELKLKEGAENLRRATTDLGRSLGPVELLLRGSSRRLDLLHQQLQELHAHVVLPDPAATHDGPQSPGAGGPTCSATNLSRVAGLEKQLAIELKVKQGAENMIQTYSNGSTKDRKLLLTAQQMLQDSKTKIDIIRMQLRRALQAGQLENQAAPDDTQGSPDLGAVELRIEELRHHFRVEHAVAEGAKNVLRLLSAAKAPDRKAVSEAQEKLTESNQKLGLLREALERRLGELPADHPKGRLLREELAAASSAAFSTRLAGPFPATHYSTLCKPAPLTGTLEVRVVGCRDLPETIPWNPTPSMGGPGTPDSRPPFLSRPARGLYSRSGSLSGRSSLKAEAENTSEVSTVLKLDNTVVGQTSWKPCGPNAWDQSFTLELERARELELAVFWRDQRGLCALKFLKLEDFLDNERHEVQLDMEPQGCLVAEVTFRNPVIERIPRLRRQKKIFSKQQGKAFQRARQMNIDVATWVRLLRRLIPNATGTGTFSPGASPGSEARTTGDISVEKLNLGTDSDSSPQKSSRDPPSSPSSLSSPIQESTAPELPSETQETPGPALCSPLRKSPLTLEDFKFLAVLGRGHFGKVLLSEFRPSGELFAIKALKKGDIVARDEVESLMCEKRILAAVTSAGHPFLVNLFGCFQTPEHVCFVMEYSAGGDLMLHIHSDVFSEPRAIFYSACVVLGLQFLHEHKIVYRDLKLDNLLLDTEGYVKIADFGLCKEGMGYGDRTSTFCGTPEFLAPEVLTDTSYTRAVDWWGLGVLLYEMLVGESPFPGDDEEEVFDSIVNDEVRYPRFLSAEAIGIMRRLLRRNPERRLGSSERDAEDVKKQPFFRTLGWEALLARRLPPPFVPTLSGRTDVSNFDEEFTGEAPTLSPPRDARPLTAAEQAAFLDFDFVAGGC
Observed: enzyme activity
Mode: inhibitor
Concentration: 0.5 µM
Baseline: control
The remaining activity of `CN(C)S(=O)(=O)c1ccc2c(c1)/C(=C/c1cc3c([nH]1)CCCC3)C(=O)N2` is reported as 91.2%.
With `O=C(c1cc2cc(O)ccc2[nH]1)c1cc2cc(O)ccc2[nH]1` the remaining activity was 76.3%.
The remaining activity of `Oc1cccc(-c2nc(N3CCOCC3)c3oc4ncccc4c3n2)c1` is reported as 101%.
With `Cc1ccc(S(=O)(=O)/C=C/C#N)cc1` the remaining activity was 92.1%.
For `CCCNC(=O)Nc1ccc(Oc2ncnc3cc(OC)c(OC)cc23)cc1Cl`, the remaining activity was 99.1%.
`COc1cccc(-c2cc(=O)c3ccccc3o2)c1N` has a remaining activity of 102%.
With `O=C1NC(=O)c2c1c1c3ccccc3[nH]c1c1[nH]c3cc(Br)ccc3c21` the remaining activity was 66%.
For `O=Nc1c(-c2c(O)[nH]c3cc(Br)ccc23)[nH]c2ccccc12`, the remaining activity was 82.2%.
`Cc1cc(Nc2cc(N3CCN(C)CC3)nc(Sc3ccc(NC(=O)C4CC4)cc3)n2)[nH]n1` gave a remaining activity of 82.6%.
The remaining activity of `CN1CCN(c2ccc3nc(-c4c(N)c5c(F)cccc5[nH]c4=O)[nH]c3c2)CC1` is reported as 15.5%.
For `O=C1Nc2ccc(Br)cc2/C1=C/c1cc2c([nH]1)CCCC2`, the remaining activity was 91.7%.
With `O=C1Nc2ccccc2/C1=C\c1c(Cl)[nH]c2ccccc12` the remaining activity was 94.6%.
With `O=C1Cc2c([nH]c3ccc(Br)cc23)-c2ccccc2N1` the remaining activity was 101%.
The remaining activity of `O=C1NC(=O)c2c1c1c3ccccc3[nH]c1n1cncc21` is reported as 76.4%.
With `c1ccc(-c2n[nH]c3c2oc2ccccc23)cc1` the remaining activity was 94.1%.
With `N#Cc1cnc2cnc(NCc3cccnc3)cc2c1Nc1ccc(F)c(Cl)c1` the remaining activity was 101%.
With `COc1ccc2c(c1)c(C1=C(c3c[nH]c4ccccc34)C(=O)NC1=O)cn2CCCN(C)C` the remaining activity was 34.7%.
The remaining activity of `c1ccc2c(-c3ccncc3)c[nH]c2c1` is reported as 66.4%.
With `O=c1cc(N2CCOCC2)oc2c(-c3ccccc3)cccc12` the remaining activity was 109%.

Sample 4
Organism: Sarcocystis neurona
Observed: parasite activity
Concentration: 10 µM
Time: 96 h
`CCCCNc1cc(C(=O)O)cc(S(N)(=O)=O)c1Oc1ccccc1`: activity class “inactive”.
Under activity class, `Oc1ccc(C2CNCCc3c2cc(O)c(O)c3Cl)cc1` (centres unmarked) is recorded as “inactive”.
For `COc1cc(/C=C/c2ccc(O)cc2)cc(OC)c1`, activity class read “inactive”.
`COc1cccc2c1C(=O)c1c(O)c3c(c(O)c1C2=O)C[C@@](O)(C(=O)CO)C[C@@H]3O[C@H]1C[C@H](N)[C@H](O)[C@H](C)O1` — result for activity class: “inactive”.
`CCC(C)(C)C(=O)O[C@H]1C[C@@H](C)C=C2C=C[C@H](C)[C@H](CC[C@@H]3C[C@@H](O)CC(=O)O3)[C@H]21`: activity class “inactive”.
For `CN(C)CC[C@@H](c1ccc(Cl)cc1)c1ccccn1`, activity class read “inactive”.
`CC(=O)NC[C@H]1CN(c2ccc(N3CCOCC3)c(F)c2)C(=O)O1` — result for activity class: “inactive”.
`CCCN1C[C@H](CSC)C[C@@H]2c3cccc4[nH]cc(c34)C[C@H]21` — result for activity class: “inactive”.
`CCN1CCCC1CNC(=O)c1cc(S(=O)(=O)CC)c(N)cc1OC` (centres unmarked) — result for activity class: “inactive”.
Under activity class, `CC(=O)[C@]1(O)Cc2c(O)c3c(c(O)c2[C@@H](O[C@H]2C[C@H](N)[C@H](O)[C@H](C)O2)C1)C(=O)c1ccccc1C3=O` is recorded as “inactive”.
Under activity class, `CC(C)/N=c1\cc2n(-c3ccc(Cl)cc3)c3ccccc3nc-2cc1Nc1ccc(Cl)cc1` is recorded as “active”.
Under activity class, `NC(=O)c1cccnc1` is recorded as “inactive”.
Under activity class, `COc1ccc2cc(CCC(C)=O)ccc2c1` is recorded as “inactive”.
`CC1=C(/C=C/C(C)=C/C=C/C(C)=C/C(=O)O)C(C)(C)CCC1` — result for activity class: “inactive”.
For `CCCNCC(O)COc1ccccc1C(=O)CCc1ccccc1` (centres unmarked), activity class read “inactive”.
`C#C[C@]1(O)CC[C@H]2[C@@H]3CCc4cc(OC)ccc4[C@H]3CC[C@@]21C`: activity class “inactive”.
For `CCOC(=O)C1=C(C)NC(C)=C(C(=O)OCC)C1c1ccccc1/C=C/C(=O)OC(C)(C)C`, activity class read “inactive”.

Repeated from above (sample 2):
The remaining binding was 100% (MAPK10 (Homo sapiens, UniProt P53779)).
For MARK4 (Homo sapiens, UniProt Q96L34): remaining binding read 83%.
It gave 91% for remaining binding (PLK3 (Homo sapiens, UniProt Q9H4B4)).
It gave 100% for remaining binding (PRKG2 (Homo sapiens, UniProt Q13237)).
The remaining binding was 89% (RIPK4 (Homo sapiens, UniProt P57078)).
The remaining binding was 100% (RIPK2 (Homo sapiens, UniProt O43353)).
